Results gathered from unrelated publications.
Each line is one published result; not all experiments were run side by side.
Method: steady-state kinetics
B1: HARS1 Y454S (Homo sapiens, UniProt P12081); chain MAERAALEELVKLQGERVRGLKQQKASAELIEEEVAKLLKLKAQLGPDESKQKFVLKTPKGTRDYSPRQMAVREKVFDVIIRCFKRHGAEVIDTPVFELKETLMGKYGEDSKLIYDLKDQGGELLSLRYDLTVPFARYLAMNKLTNIKRYHIAKVYRRDNPAMTRGRYREFYQCDFDIAGNFDPMIPDAECLKIMCEILSSLQIGDFLVKVNDRRILDGMFAICGVSDSKFRTICSSVDKLDKVSWEEVKNEMVGEKGLAPEVADRIGDYVQQHGGVSLVEQLLQDPKLSQNKQALEGLGDLKLLFEYLTLFGIDDKISFDLSLARGLDYYTGVIYEAVLLQTPAQAGEEPLGVGSVAAGGRYDGLVGMFDPKGRKVPCVGLSIGVERIFSIVEQRLEALEEKIRTTETQVLVASAQKKLLEERLKLVSELWDAGIKAELLYKKNPKLLNQLQSCEEAGIPLVAIIGEQELKDGVIKLRSVTSREEVDVRREDLVEEIKRRTGQPLCIC
B2: speck S217A (Drosophila melanogaster, UniProt Q94521); chain MEDALTVSGKPAACPVDQDCPYTIELIQPEDGEAVIAMLKTFFFKDEPLNTFLDLGECKELEKYSLKPLPDNCSYKAVNKKGEIIGVFLNGLMRRPSPDDVPEKAADSCEHPKFKKILSLMDHVEEQFNIFDVYPDEELILDGKILSVDTNYRGLGIAGRLTERAYEYMRENGINVYHVLCASHYSARVMEKLGFHEVFRMQFADYKPQGEVVFKPAAPHVGIQVMAKEVGPAKAAQTKL
B3: IYD (Homo sapiens, UniProt Q6PHW0); chain MGEPRTRAEARPWVDEDLKDSSDLHQAEEDADEWQESEENVEHIPFSHNHYPEKEMVKRSQEFYELLNKRRSVRFISNEQVPMEVIDNVIRTAGTAPSGAHTEPWTFVVVKDPDVKHKIRKIIEEEEEINYMKRMGHRWVTDLKKLRTNWIKEYLDTAPILILIFKQVHGFAANGKKKVHYYNEISVSIACGILLAALQNAGLVTVTTTPLNCGPRLRVLLGRPAHEKLLMLLPVGYPSKEATVPDLKRKPLDQIMVTV
B4: enzyme (Halalkalibacterium halodurans, UniProt Q9KCN8); chain MLNVTQLQEATTFIQQQIETKPTIGLILGSGLGILADEIEQPVKVPYSDIPHFPVSTVQGHAGQLVIGMLEGKQVIAMQGRFHFYEGYSLEVVTFPVRVMKALGVEQIIVTNAAGGVNESFEAGDLMIIRDHINNMAQNPLIGPNDEAFGVRFPDMSNAYSERLRTLAKEKGNTLNLKLQEGVYVANTGPVYETPAEVRMIRKLGGDAVGMSTVPEVIVARHAGLEVLGISCISNMAAGILPQPLSHDEVIETTERVRQDFLNLVKAIVKDM
B5: UGT1A9 (Homo sapiens, UniProt O60656); chain GKLLVVPMDGSHWFTMRSVVEKLILRGHEVVVVMPEVSWQLGRSLNCTVKTYSTSYTLEDLDREFKAFAHAQWKAQVRSIYSLLMGSYNDIFDLFFSNCRSLFKDKKLVEYLKESSFDAVFLDPFDNCGLIVAKYFSLPSVVFARGILCHYLEEGAQCPAPLSYVPRILLGFSDAMTFKERVRNHIMHLEEHLLCHRFFKNALEIASEILQTPVTEYDLYSHTSIWLLRTDFVLDYPKPVMPNMIFIGGINCHQGKPLPMEFEAYINASGEHGIVVFSLGSMVSEIPEKKAMAIADALGKIPQTVLWRYTGTRPSNLANNTILVKWLPQNDLLGHPMTRAFITHAGSHGVYESICNGVPMVMMPLFGDQMDNAKRMETKGAGVTLNVLEMTSEDLENALKAVINDKSYKENIMRLSSLHKDRPVEPLDLAVFWVEFVMRHKGAPHLRPAAHDLTWYQYHSLDVIGFLLAVVLTVAFITFKCCAYGYRKCLGKKGRVKKAHKSKTH
B6: ycjR (Escherichia coli, UniProt P76044); chain MKIGTQNQAFFPENILEKFRYIKEMGFDGFEIDGKLLVNNIEEVKAAIKETGLPVTTACGGYDGWIGDFIEERRLNGLKQIERILEALAEVGGKGIVVPAAWGMFTFRLPPMTSPRSLDGDRKMVSDSLRVLEQVAARTGTVVYLEPLNRYQDHMINTLADARRYIVENDLKHVQIIGDFYHMNIEEDNLAQALHDNRDLLGHVHIADNHRYQPGSGTLDFHALFEQLRADNYQGYVVYEGRIRAEDPAQAYRDSLAWLRTC
Sequence of UniProt A0A024SMV2 (whole entry, looked up): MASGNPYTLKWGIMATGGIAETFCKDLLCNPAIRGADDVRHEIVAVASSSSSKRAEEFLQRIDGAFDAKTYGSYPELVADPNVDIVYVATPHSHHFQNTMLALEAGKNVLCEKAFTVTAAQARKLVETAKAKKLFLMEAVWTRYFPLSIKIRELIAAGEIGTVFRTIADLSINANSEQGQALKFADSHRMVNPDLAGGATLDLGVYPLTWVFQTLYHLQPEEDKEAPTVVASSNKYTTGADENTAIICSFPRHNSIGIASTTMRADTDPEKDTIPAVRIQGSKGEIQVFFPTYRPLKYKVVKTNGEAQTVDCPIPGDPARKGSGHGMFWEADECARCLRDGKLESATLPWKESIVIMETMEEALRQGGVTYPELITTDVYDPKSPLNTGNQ
Sequence of UniProt Q48796 (whole entry, looked up): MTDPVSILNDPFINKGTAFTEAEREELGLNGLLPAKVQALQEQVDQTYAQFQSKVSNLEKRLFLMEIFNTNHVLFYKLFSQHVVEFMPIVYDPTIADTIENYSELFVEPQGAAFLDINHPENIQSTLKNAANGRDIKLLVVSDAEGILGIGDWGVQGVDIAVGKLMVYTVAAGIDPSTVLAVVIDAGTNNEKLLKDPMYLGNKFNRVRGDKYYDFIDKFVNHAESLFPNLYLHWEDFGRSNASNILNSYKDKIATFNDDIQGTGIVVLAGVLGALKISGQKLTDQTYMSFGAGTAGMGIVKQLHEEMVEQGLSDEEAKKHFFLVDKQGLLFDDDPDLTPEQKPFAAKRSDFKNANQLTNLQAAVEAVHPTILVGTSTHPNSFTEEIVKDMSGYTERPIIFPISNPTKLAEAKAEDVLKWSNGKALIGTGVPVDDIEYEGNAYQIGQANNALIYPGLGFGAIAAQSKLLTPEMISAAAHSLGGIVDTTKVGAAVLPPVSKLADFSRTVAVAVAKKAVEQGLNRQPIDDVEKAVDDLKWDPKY
Sequence of UniProt Q5W0Z9 (whole entry, looked up): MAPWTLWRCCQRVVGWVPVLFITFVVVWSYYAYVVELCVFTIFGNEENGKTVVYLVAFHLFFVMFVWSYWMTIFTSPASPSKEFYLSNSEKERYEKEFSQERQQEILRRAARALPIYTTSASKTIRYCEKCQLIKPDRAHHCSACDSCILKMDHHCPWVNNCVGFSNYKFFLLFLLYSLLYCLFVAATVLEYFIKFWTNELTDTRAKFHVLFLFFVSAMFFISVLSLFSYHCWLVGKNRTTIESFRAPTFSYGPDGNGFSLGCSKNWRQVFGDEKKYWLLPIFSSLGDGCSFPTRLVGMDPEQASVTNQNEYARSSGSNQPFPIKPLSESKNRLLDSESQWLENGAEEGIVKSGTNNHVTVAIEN
Sequence of UniProt P56926 (whole entry, looked up): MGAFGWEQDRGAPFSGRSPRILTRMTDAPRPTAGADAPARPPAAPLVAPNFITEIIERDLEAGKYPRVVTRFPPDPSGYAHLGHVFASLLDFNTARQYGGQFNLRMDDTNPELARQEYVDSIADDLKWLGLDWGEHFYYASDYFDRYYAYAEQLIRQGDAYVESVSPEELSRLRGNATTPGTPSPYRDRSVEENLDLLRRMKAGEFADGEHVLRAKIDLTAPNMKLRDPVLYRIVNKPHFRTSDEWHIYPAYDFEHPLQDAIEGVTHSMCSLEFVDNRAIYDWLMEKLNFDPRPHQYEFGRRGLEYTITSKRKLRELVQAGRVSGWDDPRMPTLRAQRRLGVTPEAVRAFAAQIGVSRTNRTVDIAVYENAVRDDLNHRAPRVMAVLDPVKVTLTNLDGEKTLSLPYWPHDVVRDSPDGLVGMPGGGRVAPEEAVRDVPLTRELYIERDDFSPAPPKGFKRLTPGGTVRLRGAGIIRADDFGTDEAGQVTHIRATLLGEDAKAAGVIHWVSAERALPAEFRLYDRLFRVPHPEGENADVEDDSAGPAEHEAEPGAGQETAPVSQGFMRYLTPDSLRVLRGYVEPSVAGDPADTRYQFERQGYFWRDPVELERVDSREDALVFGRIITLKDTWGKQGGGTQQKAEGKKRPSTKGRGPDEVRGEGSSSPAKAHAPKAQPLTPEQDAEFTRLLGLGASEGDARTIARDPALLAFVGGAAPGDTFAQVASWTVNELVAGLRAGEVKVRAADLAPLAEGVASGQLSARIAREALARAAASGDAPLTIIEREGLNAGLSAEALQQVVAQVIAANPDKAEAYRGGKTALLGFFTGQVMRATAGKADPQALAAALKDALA
Sequence of UniProt Q497L9 (whole entry, looked up): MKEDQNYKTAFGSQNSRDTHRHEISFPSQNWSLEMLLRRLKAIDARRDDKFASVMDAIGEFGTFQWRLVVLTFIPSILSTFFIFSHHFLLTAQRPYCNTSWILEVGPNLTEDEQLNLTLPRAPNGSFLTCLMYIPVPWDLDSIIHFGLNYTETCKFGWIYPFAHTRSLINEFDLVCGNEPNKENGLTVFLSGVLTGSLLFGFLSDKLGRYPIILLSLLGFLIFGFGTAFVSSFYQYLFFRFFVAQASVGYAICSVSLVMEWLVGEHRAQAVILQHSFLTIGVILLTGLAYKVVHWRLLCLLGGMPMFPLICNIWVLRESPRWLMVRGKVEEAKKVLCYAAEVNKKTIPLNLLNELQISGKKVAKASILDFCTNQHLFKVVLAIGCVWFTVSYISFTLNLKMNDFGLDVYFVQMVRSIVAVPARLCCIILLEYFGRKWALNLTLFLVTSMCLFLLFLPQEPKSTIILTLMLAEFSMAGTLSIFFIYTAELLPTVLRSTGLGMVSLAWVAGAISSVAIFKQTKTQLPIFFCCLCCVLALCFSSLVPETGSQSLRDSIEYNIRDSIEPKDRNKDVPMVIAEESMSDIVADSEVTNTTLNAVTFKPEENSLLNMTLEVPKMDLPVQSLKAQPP

Substance | substrate | pH | temperature | setting | together with | Km
enzyme (Mus musculus, UniProt Q497L9) | Cc1cc2nc3c(=O)[nH]c(=O)nc-3n(C[C@H](O)[C@H](O)[C@H](O)CO)c2cc1C |  | 37 °C | not purified |  | 0.923 µM
B1 (HARS1 Y454S) | N[C@@H](Cc1c[nH]cn1)C(=O)O | pH 7.5 | 37 °C | KCl 150 mM | tRNA(His) | 4.7 µM
B2 (speck S217A) | CC(=O)SCCNC(=O)CCNC(=O)[C@H](O)C(C)(C)COP(=O)(O)OP(=O)(O)OC[C@H]1O[C@@H](n2cnc3c(N)ncnc32)[C@H](O)[C@@H]1OP(=O)(O)O | pH 7.2 | 30 °C |  |  | 360 µM
enzyme (Deinococcus radiodurans, UniProt P56926) | NC(=O)CC[C@H](N)C(=O)O | pH 7.2 | 37 °C |  |  | 186 µM
B3 (IYD) | N#Cc1cc(C[C@H](N)C(=O)O)cc(I)c1O | pH 7.4 | 25 °C |  | sodium dithionite 0.5% | 30 µM
B4 (enzyme) | OC[C@H]1O[C@@H](n2cnc3c(O)ncnc32)[C@H](O)[C@@H]1O |  |  |  |  | 236 µM
B5 (UGT1A9) | O=c1oc2cc(O)ccc2c(-c2ccccc2)c1-c1ccccc1 | pH 7.4 | 37 °C |  |  | 3.37 µM
B6 (ycjR) | CO[C@H]1O[C@H](CO)[C@@H](O)C(=O)[C@H]1O | pH 8 | 30 °C |  | MnCl2 0.5 mM, NADH 0.3 mM | 37000 µM
mleA (Oenococcus oeni, UniProt Q48796) | O=C(O)C[C@H](O)C(=O)O | pH 6 | 45 °C |  |  | 5300 µM
ZDHHC20 (Homo sapiens, UniProt Q5W0Z9) | CCCCCCCCCCCCCCCC(=O)SCCNC(=O)CCNC(=O)[C@H](O)C(C)(C)COP(=O)(O)OP(=O)(O)OC[C@H]1O[C@@H](n2cnc3c(N)ncnc32)[C@H](O)[C@@H]1OP(=O)(O)O | pH 6.5 | 30 °C | NaCl 50 mM |  | 0.58 µM
enzyme (Trichoderma reesei, UniProt A0A024SMV2) | NC(=O)c1ccc[n+]([C@@H]2O[C@H](COP(=O)(O)OP(=O)(O)OC[C@H]3O[C@@H](n4cnc5c(N)ncnc54)[C@H](OP(=O)(O)O)[C@@H]3O)[C@@H](O)[C@H]2O)c1 | pH 8.1 | 30 °C | cofactor varied |  | 250 µM
